Measured values collected from several papers.
Each numbered part is a random draw from the data of one study; scales do not carry over between parts.

Block 1 — technique: protein binding microarray; form: double-stranded DNA, one strand shown; matrix: in vitro; tested at: not given; baseline: not given; direction: higher = stronger binding
Target: Histone acetyltransferase KAT6A, both winged helices, GST fusion (KAT6A, Homo sapiens, UniProt Q92794, residues 1-181)
Notes: 8-mer, flanks averaged, mean of 2 arrays, mostly near background
Construct (chain): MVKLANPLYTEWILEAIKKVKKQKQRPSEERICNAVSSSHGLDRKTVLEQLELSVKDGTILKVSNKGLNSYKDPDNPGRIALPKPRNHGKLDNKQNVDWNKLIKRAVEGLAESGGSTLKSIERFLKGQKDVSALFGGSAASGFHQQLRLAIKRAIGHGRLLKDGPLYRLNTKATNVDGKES
Strand	E-score
ACATTAAA	-0.0902
CGGCCGTA	0.344
CGCGAAGC	0.284
CTACCAAA	-0.0308
AAACTGGG	-0.271
ATGGCCTG	-0.153

Block 2 — technique: protein-binding microarray; form: double-stranded DNA, one strand shown; matrix: in vitro; tested at: not given; direction: higher = stronger binding
Target: Max dimerization protein 1, bHLH-zipper, MAX partner unstated (MXD1, Homo sapiens, UniProt Q05195, residues 56-136)
Notes: k-mer, scored over probes, only values ≥0.25
Target sequence (chain): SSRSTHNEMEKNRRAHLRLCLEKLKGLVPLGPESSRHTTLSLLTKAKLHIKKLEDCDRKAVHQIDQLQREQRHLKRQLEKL
Strand	E-score
CCTGCACG	0.332
AACGTGAT	0.389
AGCACGAG	0.367
CATGCTAC	0.365
ACGCGACT	0.324
ATGTGCCA	0.292

Block 3 — technique: protein-binding microarray; form: double-stranded DNA, one strand shown; matrix: in vitro; tested at: 0.8 µM; notes: whole 60-bp probe, no competitor; direction: higher = stronger binding; shared flanks, not repeated: … GTCTTGATTCGCTTGACGCTGCTG
Target: Centromere-binding protein 1, full length, N-terminal tag (CBF1, Saccharomyces cerevisiae, UniProt P17106, residues 1-351)
Chain of UniProt P17106 (whole entry, looked up): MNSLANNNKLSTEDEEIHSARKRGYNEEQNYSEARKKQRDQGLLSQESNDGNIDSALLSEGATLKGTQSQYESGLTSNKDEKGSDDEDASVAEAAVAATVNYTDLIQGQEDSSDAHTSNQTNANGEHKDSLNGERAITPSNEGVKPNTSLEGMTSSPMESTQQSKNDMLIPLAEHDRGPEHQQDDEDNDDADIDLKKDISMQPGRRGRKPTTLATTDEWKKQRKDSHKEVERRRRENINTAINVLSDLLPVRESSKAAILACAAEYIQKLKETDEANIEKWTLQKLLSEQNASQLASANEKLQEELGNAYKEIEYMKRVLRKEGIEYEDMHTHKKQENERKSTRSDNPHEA
Strand	fluorescence intensity [a.u.]
GAATGTACTCGGAGCCACGATCCATCTGGATAATAG	510
CTAGGAGGGTATAATCACATGCAGATATAATTTTTC	1420
CTAGCCTGCAATCGTCATCATATGAGAAATGGATTC	520
CCTAACTACTATAGCCATCACTAATAGCTTCGTACA	497
CTAATCGGGCAAAAAAACGTGCTAAATGACAGGTTC	803

Further values, each from its own experiment
Substance	target	test	test system	setting	scale	measurement	result
PhoQ, residues 284 288 289 292 302 303 HSYLQF	PhoP, residues 12 14 15 18 19 HLGGL (Escherichia coli, UniProt P23836)	Sort-seq, item: YFP reporter	E. coli	PhoQ-PhoP variant library, with: 10 µM Mg2+	baseline: high Mg2+ state, higher = stronger signaling	fold induction	1.13

Repeated from above (block 3):
Strand	fluorescence intensity [a.u.]
CTAGCCTGCAATCGTCATCATATGAGAAATGGATTC	520
CCTAACTACTATAGCCATCACTAATAGCTTCGTACA	497
